Results from different studies.
Protocols differ between the studies behind these lines. ± marks the error that the study gave.
CYP2A6: Cytochrome P450 2A6 (CYP2A6, Homo sapiens, UniProt P11509)
UniProt P11509, sequence (whole entry, looked up): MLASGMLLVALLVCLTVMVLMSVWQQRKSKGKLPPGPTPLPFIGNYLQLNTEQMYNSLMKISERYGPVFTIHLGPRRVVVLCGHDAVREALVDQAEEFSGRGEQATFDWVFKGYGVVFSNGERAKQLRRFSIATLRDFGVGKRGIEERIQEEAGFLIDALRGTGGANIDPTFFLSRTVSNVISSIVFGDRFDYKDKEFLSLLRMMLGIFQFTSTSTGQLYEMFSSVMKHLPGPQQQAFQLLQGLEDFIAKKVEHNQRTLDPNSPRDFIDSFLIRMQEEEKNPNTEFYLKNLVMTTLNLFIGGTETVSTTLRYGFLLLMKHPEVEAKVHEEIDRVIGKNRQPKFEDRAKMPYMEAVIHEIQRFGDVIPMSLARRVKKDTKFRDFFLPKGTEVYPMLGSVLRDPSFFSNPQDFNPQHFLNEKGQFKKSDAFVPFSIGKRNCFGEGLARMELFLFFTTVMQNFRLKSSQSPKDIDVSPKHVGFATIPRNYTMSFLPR
Ubiquitin carboxyl-terminal hydrolase 39 ZnF-UBD domain: Ubiquitin carboxyl-terminal hydrolase 39, ZnF-UBD domain (Homo sapiens, UniProt Q53GS9)
UniProt Q53GS9, sequence (whole entry, looked up): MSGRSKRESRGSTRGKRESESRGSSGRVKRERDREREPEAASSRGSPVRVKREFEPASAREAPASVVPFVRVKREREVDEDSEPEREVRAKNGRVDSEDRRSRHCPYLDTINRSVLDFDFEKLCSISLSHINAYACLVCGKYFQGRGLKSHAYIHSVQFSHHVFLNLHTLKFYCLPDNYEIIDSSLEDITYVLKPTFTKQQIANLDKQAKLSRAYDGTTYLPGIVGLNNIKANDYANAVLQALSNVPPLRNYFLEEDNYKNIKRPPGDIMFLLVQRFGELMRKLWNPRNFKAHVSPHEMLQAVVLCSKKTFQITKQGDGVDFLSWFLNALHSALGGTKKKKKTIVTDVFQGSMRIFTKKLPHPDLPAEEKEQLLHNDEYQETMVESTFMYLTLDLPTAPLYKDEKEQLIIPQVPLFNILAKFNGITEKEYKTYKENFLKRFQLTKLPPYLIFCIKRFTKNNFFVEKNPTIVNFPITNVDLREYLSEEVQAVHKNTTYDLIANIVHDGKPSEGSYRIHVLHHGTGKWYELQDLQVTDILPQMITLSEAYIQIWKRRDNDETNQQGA
Inositol-tetrakisphosphate 1-kinase: Inositol-tetrakisphosphate 1-kinase (Homo sapiens, UniProt Q13572)
UniProt Q13572, sequence (whole entry, looked up): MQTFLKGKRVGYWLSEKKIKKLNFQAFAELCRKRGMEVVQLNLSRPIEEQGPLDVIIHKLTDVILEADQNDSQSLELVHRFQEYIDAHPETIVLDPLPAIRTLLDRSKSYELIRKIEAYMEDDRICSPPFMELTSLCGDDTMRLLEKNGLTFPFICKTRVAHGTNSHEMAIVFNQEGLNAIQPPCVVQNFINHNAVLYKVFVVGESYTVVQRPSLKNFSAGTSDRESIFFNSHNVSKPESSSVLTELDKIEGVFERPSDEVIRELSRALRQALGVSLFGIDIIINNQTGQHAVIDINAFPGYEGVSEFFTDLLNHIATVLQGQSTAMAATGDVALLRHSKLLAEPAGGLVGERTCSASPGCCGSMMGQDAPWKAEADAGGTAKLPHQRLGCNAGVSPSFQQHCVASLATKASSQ
uncharacterized protein: uncharacterized protein (Solanum lycopersicum, UniProt A0A3Q7EJP1)
USP20 ZnF-UBD domain: Ubiquitin carboxyl-terminal hydrolase 20, ZnF-UBD domain (USP20, Homo sapiens, UniProt Q9Y2K6)
UniProt Q9Y2K6, sequence (whole entry, looked up): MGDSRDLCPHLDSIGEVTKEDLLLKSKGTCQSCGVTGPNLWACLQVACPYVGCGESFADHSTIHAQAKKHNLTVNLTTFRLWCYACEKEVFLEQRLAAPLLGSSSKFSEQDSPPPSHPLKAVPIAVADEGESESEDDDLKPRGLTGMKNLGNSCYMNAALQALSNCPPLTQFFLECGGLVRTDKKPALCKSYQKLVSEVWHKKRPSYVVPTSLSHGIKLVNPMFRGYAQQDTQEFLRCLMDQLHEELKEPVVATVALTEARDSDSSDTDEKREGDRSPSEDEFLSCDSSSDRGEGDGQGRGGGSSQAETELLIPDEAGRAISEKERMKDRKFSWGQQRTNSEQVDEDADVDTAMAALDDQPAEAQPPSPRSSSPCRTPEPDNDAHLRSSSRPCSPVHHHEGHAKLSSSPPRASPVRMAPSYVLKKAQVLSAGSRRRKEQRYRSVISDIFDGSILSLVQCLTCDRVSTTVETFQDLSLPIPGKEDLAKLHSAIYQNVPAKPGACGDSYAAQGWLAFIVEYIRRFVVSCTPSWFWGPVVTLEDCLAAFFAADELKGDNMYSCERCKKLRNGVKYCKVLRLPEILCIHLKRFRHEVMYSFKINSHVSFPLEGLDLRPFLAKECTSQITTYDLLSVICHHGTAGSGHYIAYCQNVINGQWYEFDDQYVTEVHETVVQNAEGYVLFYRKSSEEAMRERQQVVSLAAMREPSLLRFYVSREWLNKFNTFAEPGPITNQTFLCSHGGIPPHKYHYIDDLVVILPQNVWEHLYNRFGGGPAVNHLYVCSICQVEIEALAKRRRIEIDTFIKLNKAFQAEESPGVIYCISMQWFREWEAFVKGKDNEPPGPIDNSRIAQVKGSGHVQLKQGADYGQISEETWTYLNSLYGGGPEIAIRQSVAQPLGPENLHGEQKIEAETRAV
UniProt P33981, sequence (whole entry, looked up): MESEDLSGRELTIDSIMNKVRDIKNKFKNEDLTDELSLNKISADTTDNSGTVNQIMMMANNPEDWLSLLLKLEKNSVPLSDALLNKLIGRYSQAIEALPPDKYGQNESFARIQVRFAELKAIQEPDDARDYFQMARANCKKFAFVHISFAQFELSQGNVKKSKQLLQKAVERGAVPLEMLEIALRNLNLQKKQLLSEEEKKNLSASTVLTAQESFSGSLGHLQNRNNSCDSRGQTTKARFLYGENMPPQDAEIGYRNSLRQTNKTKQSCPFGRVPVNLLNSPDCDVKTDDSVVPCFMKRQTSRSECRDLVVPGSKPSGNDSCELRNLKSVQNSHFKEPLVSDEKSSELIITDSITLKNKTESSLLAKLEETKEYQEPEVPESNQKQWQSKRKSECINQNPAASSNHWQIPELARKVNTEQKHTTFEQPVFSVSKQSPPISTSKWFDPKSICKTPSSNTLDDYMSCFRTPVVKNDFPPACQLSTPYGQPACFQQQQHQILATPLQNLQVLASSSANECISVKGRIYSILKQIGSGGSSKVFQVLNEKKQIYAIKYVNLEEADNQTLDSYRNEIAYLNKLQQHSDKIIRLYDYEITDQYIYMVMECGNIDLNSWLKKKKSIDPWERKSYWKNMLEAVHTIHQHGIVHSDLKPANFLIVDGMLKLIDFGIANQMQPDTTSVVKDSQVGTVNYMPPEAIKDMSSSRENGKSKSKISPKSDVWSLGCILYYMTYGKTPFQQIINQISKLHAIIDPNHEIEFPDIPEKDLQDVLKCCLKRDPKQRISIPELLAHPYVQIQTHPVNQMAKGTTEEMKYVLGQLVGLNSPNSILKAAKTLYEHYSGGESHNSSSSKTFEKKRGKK
UniProt P10721, sequence (whole entry, looked up): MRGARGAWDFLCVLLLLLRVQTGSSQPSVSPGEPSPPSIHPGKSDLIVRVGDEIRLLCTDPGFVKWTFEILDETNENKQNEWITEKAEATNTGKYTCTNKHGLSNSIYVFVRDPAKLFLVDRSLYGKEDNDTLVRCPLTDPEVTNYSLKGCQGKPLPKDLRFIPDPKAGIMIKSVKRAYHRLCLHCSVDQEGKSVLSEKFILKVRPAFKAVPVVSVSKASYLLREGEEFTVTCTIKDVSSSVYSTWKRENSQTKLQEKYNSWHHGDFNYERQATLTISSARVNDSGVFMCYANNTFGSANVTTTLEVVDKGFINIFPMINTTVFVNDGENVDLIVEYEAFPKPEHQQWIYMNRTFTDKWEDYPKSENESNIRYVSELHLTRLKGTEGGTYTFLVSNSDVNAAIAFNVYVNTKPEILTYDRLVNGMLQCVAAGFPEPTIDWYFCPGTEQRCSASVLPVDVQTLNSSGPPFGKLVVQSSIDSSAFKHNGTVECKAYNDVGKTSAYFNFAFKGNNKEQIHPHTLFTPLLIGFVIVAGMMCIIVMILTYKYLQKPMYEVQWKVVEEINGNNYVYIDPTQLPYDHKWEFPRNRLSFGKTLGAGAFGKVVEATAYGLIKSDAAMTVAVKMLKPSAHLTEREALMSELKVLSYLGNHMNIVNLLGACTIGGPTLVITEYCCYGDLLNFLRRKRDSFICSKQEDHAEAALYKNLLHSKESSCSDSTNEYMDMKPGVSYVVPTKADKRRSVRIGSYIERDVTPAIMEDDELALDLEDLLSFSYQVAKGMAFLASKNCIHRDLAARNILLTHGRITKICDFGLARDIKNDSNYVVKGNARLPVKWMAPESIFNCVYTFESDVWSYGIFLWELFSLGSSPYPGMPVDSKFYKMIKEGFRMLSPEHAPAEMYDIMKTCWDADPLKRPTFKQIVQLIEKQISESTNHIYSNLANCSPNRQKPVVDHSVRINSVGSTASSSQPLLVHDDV
UniProt P31641, sequence (whole entry, unmodified, looked up): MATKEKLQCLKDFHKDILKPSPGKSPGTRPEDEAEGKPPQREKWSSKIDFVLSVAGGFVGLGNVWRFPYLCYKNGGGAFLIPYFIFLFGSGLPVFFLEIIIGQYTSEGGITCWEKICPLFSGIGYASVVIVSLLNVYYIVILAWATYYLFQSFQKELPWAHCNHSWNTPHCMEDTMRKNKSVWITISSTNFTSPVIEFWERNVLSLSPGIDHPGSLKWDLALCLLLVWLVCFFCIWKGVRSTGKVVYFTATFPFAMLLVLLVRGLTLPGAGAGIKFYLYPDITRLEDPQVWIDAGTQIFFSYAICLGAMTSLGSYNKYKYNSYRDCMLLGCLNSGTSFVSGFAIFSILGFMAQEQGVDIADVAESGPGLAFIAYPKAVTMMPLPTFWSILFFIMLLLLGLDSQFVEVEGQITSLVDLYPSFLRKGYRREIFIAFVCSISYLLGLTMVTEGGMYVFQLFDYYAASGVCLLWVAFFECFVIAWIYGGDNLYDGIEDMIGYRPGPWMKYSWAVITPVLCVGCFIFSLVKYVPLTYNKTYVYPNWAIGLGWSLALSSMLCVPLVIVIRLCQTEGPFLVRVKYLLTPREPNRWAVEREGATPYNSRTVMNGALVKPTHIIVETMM
UniProt P30043, sequence (whole entry, looked up): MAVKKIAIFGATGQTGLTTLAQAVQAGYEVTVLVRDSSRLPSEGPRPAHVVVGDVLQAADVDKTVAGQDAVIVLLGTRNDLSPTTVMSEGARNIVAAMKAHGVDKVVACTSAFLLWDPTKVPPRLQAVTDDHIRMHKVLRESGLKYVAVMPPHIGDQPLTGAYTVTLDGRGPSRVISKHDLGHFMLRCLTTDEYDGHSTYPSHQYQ

SMILES	target	test	system	setting	Kd
Nc1[nH]ncc1-c1ccccc1	CYP2A6	binding	–	20 min, pH 7.4, purified protein, 2% DMSO	4.4 µM
O=C(O)CNc1ncnc2ccccc12	Ubiquitin carboxyl-terminal hydrolase 39 ZnF-UBD domain	–	–	–	> 1000 µM
COc1cc2c(Nc3ccc(NC(=O)c4ccccc4)cc3)ncnc2cc1OCCCN1CCOCC1	KIT (Homo sapiens, UniProt P10721)	competition binding	–	11-point threefold dilution	> 10 µM
Nc1ncnc2c1ncn2[C@@H]1O[C@H](CO)C[C@H]1O	Inositol-tetrakisphosphate 1-kinase	binding	–	–	2.6 ± 1 µM
Cc1cc2nc3c(=O)[nH]c(=O)nc-3n(C[C@H](O)[C@H](O)[C@H](O)COP(=O)(O)OP(=O)(O)OC[C@H]3O[C@@H](n4cnc5c(N)ncnc54)[C@H](O)[C@@H]3O)c2cc1C	BLVRB (Homo sapiens, UniProt P30043)	binding, NMR HSQC titration	–	–	~58 µM
O=C(O)CNc1ncccn1	Ubiquitin carboxyl-terminal hydrolase 39 ZnF-UBD domain	–	–	–	> 1000 µM
c1ccc(-c2ccc(OCCn3ccnc3)cc2)cc1	CYP2A6	binding	–	20 min, pH 7.4, purified protein, 2% DMSO	21.8 µM
CCOc1cc(-c2nncn2C)ccc1Nc1ncc2cc(C)nc(NCC(C)(C)C)c2n1	TTK (Homo sapiens, UniProt P33981)	–	–	–	0.00019 µM
CCCCC/C=C\C/C=C\CCCCCCCC(=O)O	uncharacterized protein	binding, tyrosine fluorescence quenching	–	Stern-Volmer approximation	3.6 ± 0.1 µM
COc1cc(CNC(=O)CCCC/C=C/C(C)C)ccc1O	NF-κB (human)	–	–	–	440 µM
OC(Cn1ccnc1)c1ccc(Cl)cc1Cl (stereo not drawn)	CYP2A6	binding	–	20 min, pH 7.4, purified protein, 2% DMSO	10.6 µM
NC(=O)c1cc(-n2c(CCC(=O)O)nc3ccccc32)cs1	Ubiquitin carboxyl-terminal hydrolase 49, ZnF-UBD domain (USP49, Homo sapiens, UniProt Q70CQ1)	–	–	–	> 1000 µM
O=C(Cn1ccnc1)c1ccc(Cl)cc1Cl	CYP2A6	binding	–	20 min, pH 7.4, purified protein, 2% DMSO	15.2 µM
C[C@H](Cc1ccccc1)Nc1ncnc2c1ncn2[C@@H]1O[C@H](CO)[C@@H](O)[C@H]1O	adenosine A1 receptor, sheep	competition binding	striatum membranes	high-affinity site, two-site model, added: 0.009 nM [3H]DPCPX	0.005 ± 0.002 µM
O=C(O)CCC(=O)c1ccc2c(c1)CCC(=O)N2	USP20 ZnF-UBD domain	–	–	–	821 µM
CC[C@H](C)N(CC(=O)N(CC(=O)N(CC(=O)N(CC(=O)N(CC(=O)N(CC(=O)N(CC(N)=O)[C@@H](C)c1ccccc1)[C@@H](C)c1ccccc1)[C@@H](C)CC)[C@@H](C)c1ccccc1)[C@@H](C)c1ccccc1)[C@@H](C)CC)C(=O)CNCCCCN	Advanced glycosylation end product-specific receptor, soluble extracellular domain (AGER, Homo sapiens, UniProt Q15109)	binding	–	–	0.078 ± 0.017 µM
C=Cn1ccnc1	CYP2A6	binding	–	20 min, pH 7.4, purified protein, 2% DMSO	109 µM
Nc1ncnc2c1ncn2[C@@H]1O[C@H](CO)[C@@H](O)[C@@H]1F	Inositol-tetrakisphosphate 1-kinase	binding	–	–	0.55 ± 0.13 µM

SMILES	target	test	system	setting	Kd
CCCN1CCN(c2ccc(-c3cncc(Cl)c3N3CCC4(CCNC4=O)CC3)cc2)CC1	AXIN2 human	SILAC competition	LS174T-L5 lysate	–	1.05 µM
Oc1cc2c(cc1O)[C@@H]1c3ccc(O)c(O)c3OC[C@]1(O)C2	Tyrosine-protein kinase SYK, tandem SH2 domains (SYK, Homo sapiens, UniProt P43405)	tandem SH2 domain binding, bio-layer interferometry	–	–	28.1 µM
O=C(O)Cc1cccnc1	Ubiquitin carboxyl-terminal hydrolase 39 ZnF-UBD domain	–	–	–	180 µM
OC[C@@H]1CO[C@](Cn2ccnc2)(c2ccc(Cl)cc2Cl)O1 (relative stereo)	CYP2A6	binding	–	20 min, pH 7.4, purified protein, 2% DMSO	83 µM
O=C(O)CCC(=O)Nc1ccccc1	Ubiquitin carboxyl-terminal hydrolase 39 ZnF-UBD domain	–	–	–	> 1000 µM
CCCCCCCC/C=C\CCCCCCCC(=O)O	uncharacterized protein	binding, item: residue L11	–	25 °C	3 ± 1 µM
O=C(O)CC1Oc2ccccc2NC1=O (stereo not drawn)	USP20 ZnF-UBD domain	–	–	–	271 µM
Nc1ncnc2c1cnn2C1CCCCC1	Inositol-tetrakisphosphate 1-kinase	binding	–	–	0.36 ± 0.09 µM
O=C(O)CSc1nnc(NC(=O)COc2ccccc2)s1	Ubiquitin carboxyl-terminal hydrolase 39 ZnF-UBD domain	–	–	–	> 1000 µM
CCCCCCCCCCCCCCCC(=O)O	uncharacterized protein	binding, tyrosine fluorescence quenching	–	Stern-Volmer approximation	5.8 ± 0.2 µM
NS(=O)(=O)C(F)(F)F	CA1 (Homo sapiens, UniProt P00915)	urea denaturation shift, Trp fluorescence	–	10 µM, pH 6.0	0.184 µM
Oc1ccc(-c2nc(-c3ccc(OC4CCCC4)cc3)no2)cc1	Germination protease CspA (Clostridioides difficile, UniProt Q185B9)	–	–	–	> 200 µM
Nc1nc(-c2ccc(Cl)c(S(N)(=O)=O)c2)cs1	CA12 (Homo sapiens, UniProt O43570)	thermal shift	–	pH 7.0, 25 °C	0.33 µM
O=c1ccc2ccccc2o1	CYP2A6	binding	–	20 min, pH 7.4, purified protein, 2% DMSO	4.11 µM
[H]/N=C(/N)NCC(=O)O	SLC6A6 (Homo sapiens, UniProt P31641, G62A)	microscale thermophoresis	–	G62A mutant	no binding
COC(=O)C[C@@H]1N=C(c2ccc(Cl)cc2)c2c(sc(C(=O)NCCOCCNC(=O)C[C@@H]3N=C(c4ccc(Cl)cc4)c4c(sc(C)c4C)-n4c(C)nnc43)c2C)-n2c(C)nnc21	Bromodomain-containing protein 3, tandem BD1-BD2 (BRD3, Homo sapiens, UniProt Q15059)	–	–	–	0.00011 µM
Fc1ccc(NC(=S)NCCCn2ccnc2)c(F)c1	CYP2A6	binding	–	20 min, pH 7.4, purified protein, 2% DMSO	13.7 µM
CC[C@H](C)[C@@H]1NC(=O)[C@H](CCCNC(=N)N)NC(=O)[C@H](CCCNC(=N)N)NC(=O)[C@H](CCCCN)NC(=O)CNC(=O)[C@H](CCCNC(=N)N)NC(=O)[C@H]([C@@H](C)O)NC(=O)[C@H](CCCNC(=N)N)NC(=O)[C@H](C(C)C)NC(=O)[C@H](CCCNC(=N)N)NC(=O)[C@@H]2CCCN2C(=O)[C@H]2CCCN2C(=O)[C@H](CCCNC(=N)N)NC(=O)[C@H](CCCNC(=N)N)NC1=O	pre-miR-21 apical loop hairpin	binding, EMSA	–	added: yeast tRNA 250-fold excess	0.2 µM

Some of these lines once more:
SMILES	target	test	system	setting	Kd
OC[C@@H]1CO[C@](Cn2ccnc2)(c2ccc(Cl)cc2Cl)O1 (relative stereo)	CYP2A6	binding	–	20 min, pH 7.4, purified protein, 2% DMSO	83 µM
O=C(O)CCC(=O)Nc1ccccc1	Ubiquitin carboxyl-terminal hydrolase 39 ZnF-UBD domain	–	–	–	> 1000 µM
